Results collected from several papers.
Lines come from different studies, so protocols differ. Numbers after ± are the reported error.

SMILES	tested on	test	test system	setting	scale	measurement	value
c1ccc(-c2n[nH]cc2-c2ccnc3ccccc23)nc1	orf19.6492 Candida albicans	kinase binding, MIB/MS competition	Candida albicans lysate	1 µM	relative to: DMSO	log2 fold change	0.02
NNC(=O)Cc1ccccc1	–	hydrazine ligation kinetics, absorbance	–	concentration not given, 20 s, with: 2-formylphenylboronic acid	–	normalised absorbance	0.544
CNS(=O)(=O)Nc1nccc(Cc2c(C)c3ccc(Oc4ncccc4F)cc3oc2=O)c1F	OCI-AML-3	cell viability	–	7 days	–	IC50	1.42 nM
Nc1ncc(-c2cc(-c3cnn(CC(F)(F)F)c3)ncc2F)nc1C(=O)NC1CNCC(F)C1 (stereo not shown)	MELK	KINOMEscan	–	1 µM	relative to: DMSO control	remaining binding	81%
Fc1ccc(Nc2nc(NC3CCCCC3)c3cc(C(F)(F)F)ccc3n2)cc1F	β2AR/β1AR ICL1 chimera	β-arrestin2 recruitment, antagonist, BRET	–	with: isoprenaline 1 µM	–	pIC50	6.2
CCN(CC)CC(=O)Nc1cccc(-n2cc(-c3ccc4ccc(-c5cn(-c6cccc(NC(=O)CN(CC)CC)c6)nn5)cc4c3)nn2)c1	RCC4	PCR angiogenesis array, item: ANGPTL4	–	5 x IC50, 4 h, normoxia	relative to: untreated	fold regulation	-2.32
C=C(NC(=O)c1csc(-c2nc3c(cc2O)-c2nc(cs2)C(=O)NC(C(C)O)C(=O)NC(=C(C)OC)c2nc(cs2)C(=O)NC2c4nc(cs4)C(=O)NC(COC(=O)c4c5c6c(cccc6n4O)COC(=O)C(OC4CC(C)(O)C(N(C)C)C(C)O4)C2OC5)c2nc-3cs2)n1)C(N)=O (stereo not shown)	Staphylococcus aureus	–	ATCC 43300 MRSA	2 x MIC, 2 h exposure	–	post-antibiotic effect	1.29 ± 0.29 h
C=CC(=O)Nc1cccc(Cn2ncc3cnc(Nc4cnn(CCOC)c4)nc32)c1	PRKG1 human	binding, KINOMEscan	–	100 nM	lower = stronger binding	percent of control	100%
Cn1ncc2cc(-c3cncc(Cl)c3N3CCC4(CCNC4=O)CC3)ccc21	LS174T	gene expression, microarray, item: TRIM31 mRNA	–	concentration not given, 4 h	relative to: untreated cells	log2 fold change	-1.54
Cc1ncsc1-c1ccc(C(C)NC(=O)C2CC(O)CN2C(=O)C(NC(=O)CCCCCCCCCCN2CCCC(Nc3ncc(Cl)c(Nc4ccccc4S(=O)(=O)C(C)C)n3)C2)C(C)(C)C)cc1 (stereo not shown)	22Rv1	RNA-seq, item: ZMYM1 mRNA	–	concentration not given	relative to: DMSO	log2 fold change	-1.66
C=CC(=O)N1[C@H](c2ccc3c(c2)OCO3)c2[nH]c3ccccc3c2C[C@@H]1C(=O)N1CCN(C)CC1	human cyclin E1 N112C-3xFLAG:CDK2	co-IP with TMT proteomics, item: SAMHD1	–	concentration not given, Q9Y3Z3	relative to: wild type DMSO	relative co-enrichment	61%
CN1CCCNC(=O)c2cccc(c2)C(=O)NCCCN(C)CCCNc2cccc3c2C(=O)c2cccc(c2C3=O)NCCC1	SAS	RNA-Seq, item: GMNN mRNA	–	1 µM, 6 h	relative to: untreated cells	log2 fold change	-1.14
COC1CN([C@H]2CC[C@H]([C@@]3(C)Oc4c(Cl)cc(C(=O)NCc5c(SC)cc(C)[nH]c5=O)c(C)c4O3)CC2)C1	–	RNA-seq, item: SLC18A2	human, whole blood	dose not given, 24 h	relative to: pretreatment baseline	log2 fold change	1.24

Repeated from above:
SMILES	tested on	test	test system	setting	scale	measurement	value
Cc1ncsc1-c1ccc(C(C)NC(=O)C2CC(O)CN2C(=O)C(NC(=O)CCCCCCCCCCN2CCCC(Nc3ncc(Cl)c(Nc4ccccc4S(=O)(=O)C(C)C)n3)C2)C(C)(C)C)cc1 (stereo not shown)	22Rv1	RNA-seq, item: ZMYM1 mRNA	–	concentration not given	relative to: DMSO	log2 fold change	-1.66
C=CC(=O)N1[C@H](c2ccc3c(c2)OCO3)c2[nH]c3ccccc3c2C[C@@H]1C(=O)N1CCN(C)CC1	human cyclin E1 N112C-3xFLAG:CDK2	co-IP with TMT proteomics, item: SAMHD1	–	concentration not given, Q9Y3Z3	relative to: wild type DMSO	relative co-enrichment	61%
